Measured values from different studies.
± marks the error that the study gave.
Bche: Cholinesterase (Bche, Mus musculus, UniProt Q03311)

Protein sequences, listed by entry. Tags and fused reporters are not part of them. Residues count along the entry.
UniProt Q03311, whole entry, looked up: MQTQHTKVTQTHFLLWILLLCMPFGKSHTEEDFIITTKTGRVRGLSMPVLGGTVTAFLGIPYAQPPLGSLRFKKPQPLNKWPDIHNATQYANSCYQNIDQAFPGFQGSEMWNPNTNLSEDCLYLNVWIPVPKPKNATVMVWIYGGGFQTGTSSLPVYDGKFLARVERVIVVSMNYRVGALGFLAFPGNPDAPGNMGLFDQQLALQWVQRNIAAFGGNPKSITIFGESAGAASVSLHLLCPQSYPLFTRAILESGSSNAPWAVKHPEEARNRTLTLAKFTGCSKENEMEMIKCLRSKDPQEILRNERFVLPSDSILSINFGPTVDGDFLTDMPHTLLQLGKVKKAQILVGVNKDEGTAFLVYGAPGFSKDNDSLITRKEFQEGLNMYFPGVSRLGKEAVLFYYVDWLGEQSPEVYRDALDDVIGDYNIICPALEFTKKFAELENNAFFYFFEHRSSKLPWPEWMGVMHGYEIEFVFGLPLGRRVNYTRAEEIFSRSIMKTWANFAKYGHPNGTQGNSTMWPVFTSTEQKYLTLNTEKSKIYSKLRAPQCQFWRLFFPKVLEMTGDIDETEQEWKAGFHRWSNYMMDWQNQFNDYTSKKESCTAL
UniProt Q99720, whole entry: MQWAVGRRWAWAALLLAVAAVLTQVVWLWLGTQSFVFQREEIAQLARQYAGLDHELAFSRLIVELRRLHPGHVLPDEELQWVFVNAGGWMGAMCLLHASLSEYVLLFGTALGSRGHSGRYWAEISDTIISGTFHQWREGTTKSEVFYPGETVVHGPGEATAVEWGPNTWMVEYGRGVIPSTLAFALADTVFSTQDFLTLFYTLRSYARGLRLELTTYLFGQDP
UniProt P32300, whole entry: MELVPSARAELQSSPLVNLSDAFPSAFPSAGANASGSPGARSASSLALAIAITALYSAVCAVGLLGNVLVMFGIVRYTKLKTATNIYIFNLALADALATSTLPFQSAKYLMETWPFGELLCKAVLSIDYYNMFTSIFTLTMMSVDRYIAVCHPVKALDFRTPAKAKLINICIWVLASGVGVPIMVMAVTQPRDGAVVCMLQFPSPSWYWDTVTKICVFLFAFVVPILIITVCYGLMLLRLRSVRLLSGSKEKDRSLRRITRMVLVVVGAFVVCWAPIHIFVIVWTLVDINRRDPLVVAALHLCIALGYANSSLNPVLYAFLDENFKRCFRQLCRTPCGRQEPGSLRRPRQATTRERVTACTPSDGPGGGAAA
UniProt P23953, whole entry, looked up: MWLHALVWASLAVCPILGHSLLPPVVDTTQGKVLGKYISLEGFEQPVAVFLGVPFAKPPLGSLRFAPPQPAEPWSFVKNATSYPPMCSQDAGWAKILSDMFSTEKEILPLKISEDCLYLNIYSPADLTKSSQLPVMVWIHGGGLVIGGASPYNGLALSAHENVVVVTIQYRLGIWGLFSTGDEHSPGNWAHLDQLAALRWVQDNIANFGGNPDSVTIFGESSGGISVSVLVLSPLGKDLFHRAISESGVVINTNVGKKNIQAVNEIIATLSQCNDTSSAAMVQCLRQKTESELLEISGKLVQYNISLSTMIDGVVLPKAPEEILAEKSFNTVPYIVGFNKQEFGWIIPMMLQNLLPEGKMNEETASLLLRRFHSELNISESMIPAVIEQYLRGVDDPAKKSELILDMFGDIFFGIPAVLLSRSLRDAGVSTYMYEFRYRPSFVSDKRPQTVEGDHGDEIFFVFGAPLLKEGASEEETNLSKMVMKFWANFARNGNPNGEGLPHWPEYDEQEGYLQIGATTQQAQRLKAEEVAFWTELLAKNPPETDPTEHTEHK
UniProt P36544, 23-502 limits assumed: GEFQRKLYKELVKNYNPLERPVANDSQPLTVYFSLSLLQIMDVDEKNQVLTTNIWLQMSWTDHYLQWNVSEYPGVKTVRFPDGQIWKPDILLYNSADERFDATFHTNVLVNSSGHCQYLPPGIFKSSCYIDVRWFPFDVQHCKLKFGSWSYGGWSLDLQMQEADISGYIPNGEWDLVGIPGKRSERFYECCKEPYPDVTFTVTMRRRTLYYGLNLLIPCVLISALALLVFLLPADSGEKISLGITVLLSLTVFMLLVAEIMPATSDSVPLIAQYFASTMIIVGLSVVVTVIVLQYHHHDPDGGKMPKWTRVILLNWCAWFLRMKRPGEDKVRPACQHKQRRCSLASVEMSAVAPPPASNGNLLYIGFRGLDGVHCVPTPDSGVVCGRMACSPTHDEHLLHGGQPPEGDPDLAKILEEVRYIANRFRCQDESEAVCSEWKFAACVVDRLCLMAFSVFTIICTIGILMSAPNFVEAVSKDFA
UniProt P22303, 32-614 limits assumed: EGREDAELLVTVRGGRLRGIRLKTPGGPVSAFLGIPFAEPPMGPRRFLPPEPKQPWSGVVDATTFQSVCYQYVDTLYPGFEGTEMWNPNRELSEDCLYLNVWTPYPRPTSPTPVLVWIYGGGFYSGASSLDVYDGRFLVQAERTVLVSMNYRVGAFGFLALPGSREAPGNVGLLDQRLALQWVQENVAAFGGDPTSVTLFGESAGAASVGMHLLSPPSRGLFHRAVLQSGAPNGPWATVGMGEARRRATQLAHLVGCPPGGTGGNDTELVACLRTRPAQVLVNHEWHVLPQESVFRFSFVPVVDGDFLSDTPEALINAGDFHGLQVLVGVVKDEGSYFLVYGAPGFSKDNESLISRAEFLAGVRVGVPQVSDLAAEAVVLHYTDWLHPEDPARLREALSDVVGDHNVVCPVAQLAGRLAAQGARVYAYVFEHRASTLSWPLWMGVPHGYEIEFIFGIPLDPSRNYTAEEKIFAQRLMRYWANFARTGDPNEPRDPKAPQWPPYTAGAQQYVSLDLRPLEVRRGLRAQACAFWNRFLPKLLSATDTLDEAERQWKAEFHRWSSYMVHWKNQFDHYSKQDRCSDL
UniProt P41145, whole entry: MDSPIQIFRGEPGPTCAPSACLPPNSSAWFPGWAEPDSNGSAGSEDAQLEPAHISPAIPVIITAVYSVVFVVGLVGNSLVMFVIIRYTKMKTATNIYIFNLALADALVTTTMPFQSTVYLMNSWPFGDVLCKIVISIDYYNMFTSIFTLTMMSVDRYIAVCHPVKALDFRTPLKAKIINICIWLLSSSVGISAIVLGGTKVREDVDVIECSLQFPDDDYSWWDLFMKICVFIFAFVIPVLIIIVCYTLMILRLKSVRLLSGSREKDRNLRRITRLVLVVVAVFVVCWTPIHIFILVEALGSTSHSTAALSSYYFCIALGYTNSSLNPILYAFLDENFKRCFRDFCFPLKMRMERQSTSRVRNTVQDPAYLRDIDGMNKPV
UniProt P41146, whole entry: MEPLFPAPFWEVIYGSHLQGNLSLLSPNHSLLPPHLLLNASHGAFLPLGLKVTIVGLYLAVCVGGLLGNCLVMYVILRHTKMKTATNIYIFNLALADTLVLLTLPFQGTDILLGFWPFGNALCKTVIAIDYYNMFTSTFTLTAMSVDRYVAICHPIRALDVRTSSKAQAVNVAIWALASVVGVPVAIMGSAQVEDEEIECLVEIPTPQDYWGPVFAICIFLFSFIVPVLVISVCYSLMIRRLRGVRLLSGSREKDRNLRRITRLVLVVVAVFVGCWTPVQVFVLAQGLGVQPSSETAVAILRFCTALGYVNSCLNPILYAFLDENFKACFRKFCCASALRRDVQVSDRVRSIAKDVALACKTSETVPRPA
UniProt O00167, 253-538 limits assumed: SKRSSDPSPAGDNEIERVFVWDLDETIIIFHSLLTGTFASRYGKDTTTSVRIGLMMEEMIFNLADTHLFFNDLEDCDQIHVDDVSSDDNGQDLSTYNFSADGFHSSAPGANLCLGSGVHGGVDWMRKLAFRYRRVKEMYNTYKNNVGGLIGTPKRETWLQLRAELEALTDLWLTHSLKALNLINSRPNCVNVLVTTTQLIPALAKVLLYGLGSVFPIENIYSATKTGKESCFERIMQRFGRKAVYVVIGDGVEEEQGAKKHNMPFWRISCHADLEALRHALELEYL

Cc1cc2c(-c3ccco3)cnc(N[C@H]3CCN(C)C[C@@H]3C(=O)NC3CCCCC3)c2[nH]c1=O — inhibition (SIGMAR1 (Homo sapiens, UniProt Q99720); binding, radioligand binding; 10 µM): -20.8%
O=CN1CC[C@]23c4c5ccc(O)c4O[C@H]2[C@@H](O)C=C[C@H]3[C@H]1C5 — activity (Oprd1 (Mus musculus, UniProt P32300); mouse vas deferens; concentration not given): inactive
CCOP(=S)(OCC)Oc1cc(C)nc(C(C)C)n1 — inhibition (Bche; ES1-/- mice, plasma; subcutaneous, 50.0 mg/kg, 2.0 h, toxicant challenge): 81.7 ± 1.1%
N-carbamoyl-aspartate — kcat (Dihydroorotase (Bacillus anthracis, UniProt Q81WF0, N93A); substrate; N93A mutant): 1.4 ± 0.1 s⁻¹
NC(=O)c1ccc[n+]([C@@H]2O[C@H](COP(=O)([O-])OP(=O)(O)OC[C@H]3O[C@@H](n4cnc5c(N)ncnc54)[C@H](O)[C@@H]3O)[C@@H](O)[C@H]2O)c1 — Km (guaB (Bacillus anthracis, UniProt A0A6L8P2U9); substrate; pH 8.0, 25 °C): 550 ± 50 µM
CCOP(=O)(OCC)Oc1ccc([N+](=O)[O-])cc1 — remaining activity (Ces1c (Mus musculus, UniProt P23953); enzyme activity, alpha-naphthyl acetate hydrolysis; ES1+/+ mice, plasma; subcutaneous, 0.2 mg/kg, 24 h, toxicant challenge; relative to: baseline): 60%
C[C@@H]1NC(=O)[C@H](CCCNC(=N)N)NC(=O)[C@H](CCCNC(=N)N)NC(=O)[C@H](CCCNC(=N)N)NC(=O)[C@H](CO)NC(=O)[C@@H]2CSSC[C@H](NC(=O)CN)C(=O)N[C@@H](CSSC[C@@H](C(N)=O)NC(=O)[C@H](CO)NC(=O)[C@H](CCCNC(=N)N)NC1=O)C(=O)N[C@@H](CO)C(=O)N[C@@H](Cc1c[nH]cn1)C(=O)N1CCC[C@H]1C(=O)N[C@@H](C)C(=O)N2 — recovery of response (CHRNA7 (Homo sapiens, UniProt P36544); ion current, antagonist; Xenopus oocytes; 10 µM, 5 min, after washout, together with: acetylcholine; relative to: control): 0.5 ± 0.2%
CC(C)OP(=S)(OC(C)C)SCCNS(=O)(=O)c1ccccc1 — IC50 (ACHE (Homo sapiens, UniProt P22303); enzyme activity, inhibitor, fluorescence; rat liver microsomes with NADPH): inactive
COc1cc(CNC(=O)c2cnc3c(=O)[nH]c(N)nc3n2)cc(OC)c1OC — ΔTm (Ricin, A chain (Ricinus communis, UniProt P02879); differential scanning fluorimetry; 500 µM, pH 7.5, 2 µM protein): 1 °C
CCOP(=S)(OCC)Oc1ccc([N+](=O)[O-])cc1 — inhibition (Bche; ES1-/- mice, plasma; subcutaneous, 12.5 mg/kg, 6.0 h, toxicant challenge): 76 ± 4.4%
Cc1cc(=O)oc2cc(NC(=O)CNC(=O)CNC(=O)[C@H](CCCNC(=N)N)NC(=O)[C@H](CC(C)C)NC(=O)[C@H](CCCNC(=N)N)NC(=O)OCc3ccccc3)ccc12 — Km (Replicase polyprotein 1a, papain-like protease (Severe acute respiratory syndrome-related coronavirus, UniProt P0C6U8); protease activity, substrate; pH 7.5): 75.9 µM
CO[C@]12CC[C@@]3(C[C@@H]1[C@](C)(O)c1ccc(C)s1)[C@H]1Cc4ccc(O)c5c4[C@@]3(CCN1CC1CC1)[C@H]2O5 — stimulation (OPRK1 (Homo sapiens, UniProt P41145); G-protein activation, agonist; 10 µM; relative to: U-69593): 81 ± 1%
CN(C)[C@]1(c2ccccc2)CC[C@]2(CC1)OCCc1c3cc(F)ccc3[nH]c12 — Emax (Nociceptin receptor (OPRL1, Homo sapiens, UniProt P41146); cAMP, agonist; human receptor): 95.9 ± 0.9%
O=[As]c1ccccc1 (centres unmarked) — activity class (Protein phosphatase EYA2 (Homo sapiens, UniProt O00167); phosphatase activity, inhibitor; concentration not given, Eya2 ED, together with: OMFP substrate): inactive
